Assay results gathered from unrelated publications.
Parts stem from different laboratories: compare values within a part only. Changes are numbered by the printed parent chain.

Block 1 — target: CCNA2, cyclin fold, Cln2 fusion (human); technique: yeast growth competition, sequencing; matrix: yeast; setting: strong parent motif; reference: not given; direction: higher = stronger binding
Starting sequence: GMNC docking peptide (human); KNAKRNLSSEFAN
`KNAERNLSSEFAN [K4E]` — result for “normalised enrichment score”: 0.107.
`KYAKRNLSSEFAN [N2Y]` — result for “normalised enrichment score”: 3.57.
For `KNAKRNLSSESAN [F11S]`, “normalised enrichment score” read 0.486.
For `KNAKRNLSSKFAN [E10K]`, “normalised enrichment score” read 1.12.
For `KNAKRNLSHEFAN [S9H]`, “normalised enrichment score” read 5.33.
`KNAKRNLSSEFKN [A12K]`: “normalised enrichment score” 4.4.
Under “normalised enrichment score”, `KNAKRNLSWEFAN [S9W]` is recorded as 5.28.
Under “normalised enrichment score”, `KNAMRNLSSEFAN [K4M]` is recorded as 2.26.
`KRAKRNLSSEFAN [N2R]`: “normalised enrichment score” 6.
`KNAKRNLSSELAN [F11L]`: “normalised enrichment score” 2.82.
For `KNAKRALSSEFAN [N6A]`, “normalised enrichment score” read 2.79.
`KNAKRNGSSEFAN [L7G]`: “normalised enrichment score” 0.122.
`KNAKRNSSSEFAN [L7S]`: “normalised enrichment score” 0.0553.
Under “normalised enrichment score”, `KNAKNNLSSEFAN [R5N]` is recorded as 0.432.
`KNAKRNLSSNFAN [E10N]` — result for “normalised enrichment score”: 0.986.
`KNSKRNLSSEFAN [A3S]`: “normalised enrichment score” 3.44.
Under “normalised enrichment score”, `KNAKRNLSSERAN [F11R]` is recorded as 0.256.
Under “normalised enrichment score”, `KNAKRLLSSEFAN [N6L]` is recorded as 0.257.
`KNAKRNQSSEFAN [L7Q]` — result for “normalised enrichment score”: 0.421.
`KNAKRNLSSEMAN [F11M]` — result for “normalised enrichment score”: 1.79.
For `KNAKRNLSSYFAN [E10Y]`, “normalised enrichment score” read 3.03.
Under “normalised enrichment score”, `KNAKRNLSSEQAN [F11Q]` is recorded as 0.58.
`KNAKRNLSSEFVN [A12V]` — result for “normalised enrichment score”: 4.37.
For `KNAKDNLSSEFAN [R5D]`, “normalised enrichment score” read -0.0405.

Block 2 — technique: RNA Bind-n-Seq; form: RNA; matrix: in vitro; tested at: 200 nM; setting: whole 134-nt RNA, ends assumed; with: 150 mM KCl; reference: input library; direction: higher = stronger binding
Target: Fragile X messenger ribonucleoprotein 1, C-terminal low-complexity region (Fmr1, Mus musculus, UniProt P35922)
`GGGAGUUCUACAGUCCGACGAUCUCCUCAAGUCCUGUGCUACACAUCGUAUGUACCGAAUCGGUGGUGGGGUGGAAAGUAUUAUGUUACGCCGUUCGGAUCUGCACUUCCAGCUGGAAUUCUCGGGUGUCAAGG` gave a log2 enrichment of -0.0925.
The log2 enrichment of `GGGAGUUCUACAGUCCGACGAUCCAAGUCCUGUGCUACACAUCGUAUGUACCGAAUCGGGUUUGGGGUUUGGGGUUUGGAAAGUAUUAUGUUACGCCGUUCGGAUCUGCACUUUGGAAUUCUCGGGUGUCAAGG` is reported as -0.127.
`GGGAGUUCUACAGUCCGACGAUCAAGUCCUGUGCUACACAUCGUAUGUACCGAAUCGGGGCCCCGGGCCCCGGCCCCGGAAAGUAUUAUGUUACGCCGUUCGGAUCUGCACUUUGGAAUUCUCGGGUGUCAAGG` gave a log2 enrichment of -0.801.
`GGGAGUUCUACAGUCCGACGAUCGCAGGAAGUAAAAACAAAUGGAAAUGCUUCGGAUAGUGGCAGGGGUGGGGGUUGCUAAGGAAAGGGUGGGAUGGGAGUGGGUAACGAGUUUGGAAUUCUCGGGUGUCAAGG` gave a log2 enrichment of 0.225.
`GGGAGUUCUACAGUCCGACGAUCGUCCUGUGCUACACAUCGUAUGUACCGAAUCGGGAGGGUUUUUUUGGGAAAAAAAGGGAAAGUAUUAUGUUACGCCGUUCGGAUCUGCACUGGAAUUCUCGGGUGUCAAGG` has a log2 enrichment of -0.215.
For `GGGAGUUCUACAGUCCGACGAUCUGGGAGGUGGAUUUUGUUUAUUUUUUUAGCUCAUUUCCAGGGGUGGGAAUUUUUUUUUAAUAUGUGUCAUGAAUAAAGCUGUUUUUGAAAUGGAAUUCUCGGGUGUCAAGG`, the log2 enrichment was 0.225.
For `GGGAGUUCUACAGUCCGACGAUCUGGCCCUGGUGGCAUGCGGGGAGGAAGGGGUGGCCUCAUGGAUCGUGGUGGUCCCGGUGGAAUGUUCAGAGGUGGCCGUGGUGGAGACAGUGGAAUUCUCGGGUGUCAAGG`, the log2 enrichment was 0.711.
`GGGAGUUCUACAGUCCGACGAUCUCAAGUCCUGUGCUACACAUCGUAUGUACCGAAUCGGGGCCGGGGCCGGGCCGGAAAGUAUUAUGUUACGCCGUUCGGAUCUGCACUUCCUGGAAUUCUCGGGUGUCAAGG` has a log2 enrichment of -0.141.
For `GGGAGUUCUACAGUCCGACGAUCGGCAGGAGGAAGAGCGCAGGCGCCGUGAAGAAGAGAUGCGGCGGCAGCAAGAAGAAAUGAUGCGGCGACAGCAGGAAGGAUUCAAGGGAAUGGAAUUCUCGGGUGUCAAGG`, the log2 enrichment was 0.551.

Block 3 — technique: RNA Bind-n-Seq; form: RNA; matrix: in vitro; tested at: 365 nM; reference: no-protein control; direction: higher = stronger binding
Target: RNA binding protein fox-1 homolog 2, RRM domain, GST-SBP tag (RBFOX2, Homo sapiens, UniProt O43251-10, residues 100-194)
Setting: natural RNA segment, single round, ends assumed
Target sequence (chain): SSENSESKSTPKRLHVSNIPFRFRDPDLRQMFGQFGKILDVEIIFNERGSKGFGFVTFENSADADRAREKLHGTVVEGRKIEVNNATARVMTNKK
`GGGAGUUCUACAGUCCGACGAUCUAGACACUCAUUUAGUGCCCAGGGAGUCCAGCGAAUGACGUCUGUGGCCAAGCGAGGUCUCAGGUGCAAAGCAAAAGGACCAUUUAAAGUAAAAUAGCUUGGAUUCAAUCUGGAAUUCUCGGGUGCCAA` — result for “RBNS enrichment (R)”: 0.222.
Under “RBNS enrichment (R)”, `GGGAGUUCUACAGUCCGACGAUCACCAGGGUCACUUCCACUGUCAGGGGCCUGAGGGGGCAGCUGUGGCUGCAGGGCUGCUCUGGACUGAGGGGUCCCAGGCCCCGAGGGGUGCACGCCUGGCUCCCCUUGGCUGGAAUUCUCGGGUGCCAA` is recorded as 0.611.
`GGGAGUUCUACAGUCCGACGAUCCGCCCAAGUGCCCUGUCCAGUGUCUGCUUGCCAUCCUGCCAGAACAGGCCCUCAAGCCCAAGAGCCAUCCCAGGCCUGUUCAGGCCUCAGCUAAGCCUCUCUUCAUCUGGUGGAAUUCUCGGGUGCCAA` — result for “RBNS enrichment (R)”: 0.403.
Under “RBNS enrichment (R)”, `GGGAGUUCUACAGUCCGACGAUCUCUCUCUCCUGAGAGCAAGCAUUUGUGUCAGCCACAGGAAGCAGAAGUAUUAAGGGAGGAAGUGCUGGUAGCUGCCCUGUGGGGAGACUCCCUAGGAAAGUAACGGGCACUGGAAUUCUCGGGUGCCAA` is recorded as 0.354.
`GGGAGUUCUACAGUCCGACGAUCUGUCCCUUCUCCCCAGUCAGUAUUACCCUUCGCGCCCAUAUUAUUUAGGAGGGCUUUAGGGGCUCCCUGGUUGAGUAUCACCCUGCCCCUUCCCCUCUCUUCCUCCCCUCUGGAAUUCUCGGGUGCCAA`: “RBNS enrichment (R)” 0.581.
`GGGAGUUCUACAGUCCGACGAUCGCCUCAGUUUGCCAUCUAUGAAAUGAGGUGGACCCCUCUCCAUAGCCCUUGGGUGCCAGCUCAGUGGGUGUGGGGAUCACAUGAGGUGGCUCAUGAGGACACACUCUGGAUGGAAUUCUCGGGUGCCAA`: “RBNS enrichment (R)” 0.513.
Under “RBNS enrichment (R)”, `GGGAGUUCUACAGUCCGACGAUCUUUAGUUUCUAGGAAGCCACUGUGCUGUGCUAAGAAGCAGUUGGUCAGGAGGGCUCAGCCCAGGAGCAGGUGGCCCUGGGGUGCAUGUCAGCCAGGGGCCAGUCAGCCCAUGGAAUUCUCGGGUGCCAA` is recorded as 2.13.
`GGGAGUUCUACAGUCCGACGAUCGCCCCAUCUCCCCAUAGCCUGAGUGAUGAGGUGGCCCCAGAGCUGAUCUCUGCUGCUGUGUCUUUAUCUACCCUUGCUAGCCCCGGCUCUGGUAGACCGUUCUGGAAUGGUGGAAUUCUCGGGUGCCAA`: “RBNS enrichment (R)” 0.346.

Block 4 — technique: RNAcompete; form: RNA; matrix: in vitro; tested at: 20 nM; setting: 7-mer, probes averaged, single round; reference: mean of 7-mers; direction: higher = stronger binding
Target: PABPC1L2, full length, GST fusion (mouse, UniProt A0ABA7IW68)
Residues (chain): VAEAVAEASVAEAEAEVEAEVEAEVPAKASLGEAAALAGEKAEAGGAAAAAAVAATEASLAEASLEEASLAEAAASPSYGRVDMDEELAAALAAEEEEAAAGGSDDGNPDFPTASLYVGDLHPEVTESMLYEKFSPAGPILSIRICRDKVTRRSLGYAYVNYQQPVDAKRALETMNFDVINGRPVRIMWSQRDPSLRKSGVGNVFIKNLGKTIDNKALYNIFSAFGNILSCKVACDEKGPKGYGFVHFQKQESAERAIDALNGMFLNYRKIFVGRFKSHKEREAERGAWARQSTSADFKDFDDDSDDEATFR
The 7-mer Z-score of `GCAACAA` is reported as 0.369.
`GAAGAAU` has a 7-mer Z-score of 0.0968.
`CACCACA` has a 7-mer Z-score of 0.0297.
`GCACGUG` has a 7-mer Z-score of -0.106.
For `CGUUAUU`, the 7-mer Z-score was -0.284.
The 7-mer Z-score of `CUCUGGU` is reported as -0.34.
The 7-mer Z-score of `CGUGGUC` is reported as -0.211.
With `ACCCCGG` the 7-mer Z-score was -0.315.
For `CGCCGAA`, the 7-mer Z-score was -0.0935.
`CAUUGCG` has a 7-mer Z-score of -0.0283.
The 7-mer Z-score of `UCUUUCG` is reported as -0.389.
`ACUCUUU` gave a 7-mer Z-score of -0.133.
`CUACAUC` gave a 7-mer Z-score of -0.273.
`CACUAAG` gave a 7-mer Z-score of -0.05.
For `CAAGAGA`, the 7-mer Z-score was 0.274.
The 7-mer Z-score of `GCUAGCC` is reported as -0.354.
For `GCUACCG`, the 7-mer Z-score was 0.017.
`UCACUUC` has a 7-mer Z-score of -0.405.
The 7-mer Z-score of `CAUGCGA` is reported as -0.0464.
`UCGCGUA` has a 7-mer Z-score of -0.418.
For `UGCGAUU`, the 7-mer Z-score was -0.179.
The 7-mer Z-score of `UAGAAAC` is reported as 0.968.
With `UGCGUGC` the 7-mer Z-score was -0.193.
With `CAUACCU` the 7-mer Z-score was -0.309.
`UAGGUGG` has a 7-mer Z-score of -0.0101.

Some of these lines once more (block 4):
`UCGCGUA` has a 7-mer Z-score of -0.418.
The 7-mer Z-score of `UCUUUCG` is reported as -0.389.
For `CGUUAUU`, the 7-mer Z-score was -0.284.
The 7-mer Z-score of `UAGAAAC` is reported as 0.968.
